Published values from different studies.
Protocols differ between the studies behind these lines. Several values in a cell are separate wells, animals, samples, runs or records. Numbers after ± are the reported error.
Cell line: MDCK

SMILES	assay	setting	measurement	result
C[C@@H](c1ncncc1F)[C@](O)(Cn1cncn1)c1ccc(F)cc1F	permeability basolateral to apical	1 µM, 90 min, pH 6.5 apical to 7.4 basolateral	Papp	57.6 ×10⁻⁶ cm/s and 58.2 ×10⁻⁶ cm/s
Cn1cc(-c2cccc(N3CCc4cc(C(C)(C)C)ccc4C3=O)c2CO)cc(Nc2ccncn2)c1=O	–	10 µM, 3 h	apparent permeability B-A	1.6 ×10⁻⁶ cm/s
C[C@@H]1COCCN1c1nc(-c2cnc(N)cn2)nc2c1C[C@@H]1COCCN21	–	1 µM, 20 (unit not given)	Papp B to A	68.7 ×10⁻⁶ cm/s
NC12CC3CC(CC(C3)C1)C2	cell morphology	–	minimum cytotoxic concentration	> 100 µM
CC(=O)Nc1ccc(O)cc1	–	–	Papp	22.8 ×10⁻⁶ cm/s
NC(=O)c1ncn([C@@H]2O[C@H](CO)[C@@H](O)[C@H]2O)n1	cell morphology	–	minimum cytotoxic concentration	> 100 µM
Cc1cnc(Nc2ccc(OCCN3CCCC3)cc2)nc1Nc1cccc(S(=O)(=O)NC(C)(C)C)c1	permeability basolateral to apical	1 µM, 90 min, pH 6.5 apical to 7.4 basolateral	Papp	1.34 ×10⁻⁶ cm/s and 0.61 ×10⁻⁶ cm/s
Cn1cc(-c2cccc(N3CCc4c(sc5c4CCCC5)C3=O)c2CO)cc(Nc2ccncn2)c1=O	–	10 µM, 3 h	apparent permeability A-B	6.6 ×10⁻⁶ cm/s
CC(C)n1nccc1-c1ncccc1COc1cccc(O)c1C=O	–	1 µM, 90 min, pH 6.5 apical, 7.4 basolateral	Papp A to B	41.5 ×10⁻⁶ cm/s and 38.4 ×10⁻⁶ cm/s
Cn1cc(-c2cccc(N3CCOc4cc(C(C)(C)C)ccc4C3=O)c2CO)cc(Nc2ccncn2)c1=O	–	10 µM, 3 h	apparent permeability A-B	6 ×10⁻⁶ cm/s
CC(N)C12CC3CC(CC(C3)C1)C2 (stereo not shown)	cell morphology	–	minimum cytotoxic concentration	> 200 µM
Cc1c(-c2cc(Nc3ccncn3)c(=O)n(C)c2)cccc1N1CCc2c(sc3c2CCCC3)C1=O	–	10 µM, 3 h	apparent permeability A-B	13.5 ×10⁻⁶ cm/s
CC(=O)Nc1ccc(O)cc1	permeability basolateral to apical	1 µM, 90 min, pH 7.4 apical to 7.4 basolateral	Papp	10.5 ×10⁻⁶ cm/s and 14.6 ×10⁻⁶ cm/s
C[C@@H]1COCCN1c1nc(-c2nnc(N)s2)nc2c1C[C@@H]1COCCN21	–	1 µM, 20 (unit not given)	Papp A to B	12.2 ×10⁻⁶ cm/s
NC(=O)c1ncn([C@@H]2O[C@H](CO)[C@@H](O)[C@H]2O)n1	–	–	CC50	> 1000 µg/mL
C[C@@H]1COCCN1c1nc(-c2cnc(N)s2)nc2c1C[C@@H]1COCCN21	–	1 µM, 20 (unit not given)	Papp A to B	15.5 ×10⁻⁶ cm/s
Cn1cc(-c2cccc(N3CCn4c(cc5c4CCCC5)C3=O)c2CO)cc(Nc2ccncn2)c1=O	–	10 µM, 3 h	apparent permeability A-B	10.2 ×10⁻⁶ cm/s
COCCc1ccc(OCC(O)CNC(C)C)cc1 (stereo not shown)	permeability	–	Papp	53.5 ± 6.05 ×10⁻⁶ cm/s
Nc1cc(C(F)(F)F)c(-c2nc(N3CCOCC3)nc(N3CCOCC3)n2)cn1	–	1 µM, 20 (unit not given)	Papp A to B	179 ×10⁻⁶ cm/s

Excerpt of the above:
SMILES	assay	setting	measurement	result
Cn1cc(-c2cccc(N3CCc4cc(C(C)(C)C)ccc4C3=O)c2CO)cc(Nc2ccncn2)c1=O	–	10 µM, 3 h	apparent permeability B-A	1.6 ×10⁻⁶ cm/s
C[C@@H]1COCCN1c1nc(-c2cnc(N)cn2)nc2c1C[C@@H]1COCCN21	–	1 µM, 20 (unit not given)	Papp B to A	68.7 ×10⁻⁶ cm/s
NC12CC3CC(CC(C3)C1)C2	cell morphology	–	minimum cytotoxic concentration	> 100 µM
